Assay results pooled from the literature.
A part holds a random share of what one study measured. Several values in a cell are separate wells, animals, samples, runs or records.
Chain of UniProt P10721 (whole entry, unmodified, looked up): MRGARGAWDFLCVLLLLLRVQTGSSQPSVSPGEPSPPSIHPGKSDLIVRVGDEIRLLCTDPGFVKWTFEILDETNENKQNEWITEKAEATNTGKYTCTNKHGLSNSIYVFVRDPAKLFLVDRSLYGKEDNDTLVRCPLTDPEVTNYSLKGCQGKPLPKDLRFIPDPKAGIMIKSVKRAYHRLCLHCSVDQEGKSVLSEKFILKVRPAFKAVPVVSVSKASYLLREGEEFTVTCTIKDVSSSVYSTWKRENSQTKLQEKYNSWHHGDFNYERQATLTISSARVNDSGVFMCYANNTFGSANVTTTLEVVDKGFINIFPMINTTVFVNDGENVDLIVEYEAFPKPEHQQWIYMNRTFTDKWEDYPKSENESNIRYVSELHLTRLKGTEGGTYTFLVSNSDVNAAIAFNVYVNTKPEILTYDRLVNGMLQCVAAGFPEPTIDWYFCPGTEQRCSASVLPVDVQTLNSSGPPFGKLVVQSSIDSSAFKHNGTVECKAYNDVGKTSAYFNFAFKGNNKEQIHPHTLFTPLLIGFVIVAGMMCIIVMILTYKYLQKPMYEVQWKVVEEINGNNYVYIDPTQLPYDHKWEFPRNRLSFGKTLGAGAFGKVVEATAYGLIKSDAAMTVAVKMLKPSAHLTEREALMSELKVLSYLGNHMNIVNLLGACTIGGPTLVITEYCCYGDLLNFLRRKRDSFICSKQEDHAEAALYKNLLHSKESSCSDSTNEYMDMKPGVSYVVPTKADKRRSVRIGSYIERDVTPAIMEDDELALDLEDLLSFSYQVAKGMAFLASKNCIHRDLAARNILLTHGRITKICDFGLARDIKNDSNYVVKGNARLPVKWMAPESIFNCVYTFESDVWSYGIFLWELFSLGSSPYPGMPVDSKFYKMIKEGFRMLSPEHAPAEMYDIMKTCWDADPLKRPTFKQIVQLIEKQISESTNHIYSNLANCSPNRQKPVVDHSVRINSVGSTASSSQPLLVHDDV
Chain of UniProt Q8IU85 (whole entry, looked up): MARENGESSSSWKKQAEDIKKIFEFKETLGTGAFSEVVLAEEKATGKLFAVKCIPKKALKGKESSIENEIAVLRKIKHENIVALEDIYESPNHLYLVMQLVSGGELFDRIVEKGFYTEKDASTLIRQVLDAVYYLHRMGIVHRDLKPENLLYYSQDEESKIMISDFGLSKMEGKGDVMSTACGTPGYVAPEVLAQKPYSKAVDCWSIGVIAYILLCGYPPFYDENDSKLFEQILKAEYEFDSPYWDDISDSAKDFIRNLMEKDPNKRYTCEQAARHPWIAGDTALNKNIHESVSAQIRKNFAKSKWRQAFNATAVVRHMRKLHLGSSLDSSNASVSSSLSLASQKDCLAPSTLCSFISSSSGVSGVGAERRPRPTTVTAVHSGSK
Chain of UniProt O75116 (whole entry, looked up): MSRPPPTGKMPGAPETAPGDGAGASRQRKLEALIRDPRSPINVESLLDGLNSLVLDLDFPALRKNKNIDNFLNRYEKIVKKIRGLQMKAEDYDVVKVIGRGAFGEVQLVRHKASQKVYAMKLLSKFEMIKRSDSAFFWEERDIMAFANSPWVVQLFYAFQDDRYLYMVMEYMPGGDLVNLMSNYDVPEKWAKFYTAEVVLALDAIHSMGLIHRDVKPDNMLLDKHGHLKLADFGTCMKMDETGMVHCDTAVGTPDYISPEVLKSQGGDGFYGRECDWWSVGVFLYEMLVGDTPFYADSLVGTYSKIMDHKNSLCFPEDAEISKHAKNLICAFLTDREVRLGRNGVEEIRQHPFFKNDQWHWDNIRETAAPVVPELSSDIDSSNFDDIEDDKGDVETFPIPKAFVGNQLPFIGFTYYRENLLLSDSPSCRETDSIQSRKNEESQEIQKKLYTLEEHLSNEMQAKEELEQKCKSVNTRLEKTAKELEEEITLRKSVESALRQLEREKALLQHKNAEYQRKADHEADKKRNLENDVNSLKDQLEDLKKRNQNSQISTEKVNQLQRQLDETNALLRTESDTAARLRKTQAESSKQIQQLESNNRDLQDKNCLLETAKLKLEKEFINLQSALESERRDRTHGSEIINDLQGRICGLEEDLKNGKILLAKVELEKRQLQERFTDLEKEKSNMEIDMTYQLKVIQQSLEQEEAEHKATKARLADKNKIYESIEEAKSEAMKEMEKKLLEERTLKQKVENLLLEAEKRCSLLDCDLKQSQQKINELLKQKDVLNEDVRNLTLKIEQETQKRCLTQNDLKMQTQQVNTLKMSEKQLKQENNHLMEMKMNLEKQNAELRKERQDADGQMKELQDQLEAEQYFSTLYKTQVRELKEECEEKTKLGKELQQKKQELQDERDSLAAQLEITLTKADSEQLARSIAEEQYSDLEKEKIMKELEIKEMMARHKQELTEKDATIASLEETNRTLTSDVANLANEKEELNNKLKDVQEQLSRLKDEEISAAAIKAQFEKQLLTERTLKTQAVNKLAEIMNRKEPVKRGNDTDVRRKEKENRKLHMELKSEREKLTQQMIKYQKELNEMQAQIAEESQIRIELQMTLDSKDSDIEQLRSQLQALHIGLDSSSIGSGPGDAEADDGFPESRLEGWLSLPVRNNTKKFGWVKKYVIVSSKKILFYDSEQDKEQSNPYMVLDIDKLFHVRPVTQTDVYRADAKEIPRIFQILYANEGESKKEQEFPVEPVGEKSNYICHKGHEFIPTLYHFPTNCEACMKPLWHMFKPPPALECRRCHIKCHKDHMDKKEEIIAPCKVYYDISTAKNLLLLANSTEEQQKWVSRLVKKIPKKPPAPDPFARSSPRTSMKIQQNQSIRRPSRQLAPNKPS
Chain of UniProt Q9NWZ3 (whole entry, looked up): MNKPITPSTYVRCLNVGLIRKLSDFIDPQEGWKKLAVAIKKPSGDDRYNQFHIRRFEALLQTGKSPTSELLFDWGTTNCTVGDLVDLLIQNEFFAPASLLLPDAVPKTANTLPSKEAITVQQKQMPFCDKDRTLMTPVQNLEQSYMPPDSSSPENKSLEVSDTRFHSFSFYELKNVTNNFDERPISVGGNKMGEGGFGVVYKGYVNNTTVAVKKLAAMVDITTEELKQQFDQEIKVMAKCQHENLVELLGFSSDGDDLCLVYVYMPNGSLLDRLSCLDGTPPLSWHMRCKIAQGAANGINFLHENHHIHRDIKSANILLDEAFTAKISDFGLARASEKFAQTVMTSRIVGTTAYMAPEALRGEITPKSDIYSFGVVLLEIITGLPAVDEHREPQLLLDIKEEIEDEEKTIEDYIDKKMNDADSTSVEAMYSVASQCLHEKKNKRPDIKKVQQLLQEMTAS
Chain of UniProt Q15139 (whole entry, looked up): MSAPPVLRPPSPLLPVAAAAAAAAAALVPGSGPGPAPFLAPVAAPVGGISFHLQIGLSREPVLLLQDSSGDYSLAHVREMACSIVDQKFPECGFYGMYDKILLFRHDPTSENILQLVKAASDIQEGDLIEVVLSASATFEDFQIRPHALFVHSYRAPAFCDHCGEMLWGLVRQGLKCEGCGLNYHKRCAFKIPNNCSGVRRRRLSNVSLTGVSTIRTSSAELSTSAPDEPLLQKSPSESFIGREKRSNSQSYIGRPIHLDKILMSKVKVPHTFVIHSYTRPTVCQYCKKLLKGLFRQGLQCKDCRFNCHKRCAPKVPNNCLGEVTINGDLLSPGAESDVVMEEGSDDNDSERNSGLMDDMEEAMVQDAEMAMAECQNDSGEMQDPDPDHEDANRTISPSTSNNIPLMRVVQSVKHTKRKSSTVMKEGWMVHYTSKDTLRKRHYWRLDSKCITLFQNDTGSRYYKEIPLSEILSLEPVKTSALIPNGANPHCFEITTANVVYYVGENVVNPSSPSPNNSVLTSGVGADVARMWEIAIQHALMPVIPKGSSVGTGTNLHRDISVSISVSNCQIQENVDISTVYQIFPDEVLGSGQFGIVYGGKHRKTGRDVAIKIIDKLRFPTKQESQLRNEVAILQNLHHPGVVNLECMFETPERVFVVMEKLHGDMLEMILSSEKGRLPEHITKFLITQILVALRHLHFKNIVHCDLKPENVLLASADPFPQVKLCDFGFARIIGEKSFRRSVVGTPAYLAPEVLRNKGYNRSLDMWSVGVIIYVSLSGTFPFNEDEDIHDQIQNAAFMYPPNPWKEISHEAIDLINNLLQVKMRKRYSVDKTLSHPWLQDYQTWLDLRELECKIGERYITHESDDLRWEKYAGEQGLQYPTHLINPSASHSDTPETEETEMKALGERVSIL
Chain of UniProt P11309 (whole entry, looked up): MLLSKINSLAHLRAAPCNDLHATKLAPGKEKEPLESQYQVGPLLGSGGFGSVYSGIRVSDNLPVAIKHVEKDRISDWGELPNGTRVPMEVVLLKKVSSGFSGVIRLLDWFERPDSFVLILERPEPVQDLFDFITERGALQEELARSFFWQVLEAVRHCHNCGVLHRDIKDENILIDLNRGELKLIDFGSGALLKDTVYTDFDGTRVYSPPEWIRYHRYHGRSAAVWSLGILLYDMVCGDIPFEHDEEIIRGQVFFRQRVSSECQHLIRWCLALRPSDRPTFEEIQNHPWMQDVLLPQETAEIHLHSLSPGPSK
Chain of UniProt O14965 (whole entry, looked up): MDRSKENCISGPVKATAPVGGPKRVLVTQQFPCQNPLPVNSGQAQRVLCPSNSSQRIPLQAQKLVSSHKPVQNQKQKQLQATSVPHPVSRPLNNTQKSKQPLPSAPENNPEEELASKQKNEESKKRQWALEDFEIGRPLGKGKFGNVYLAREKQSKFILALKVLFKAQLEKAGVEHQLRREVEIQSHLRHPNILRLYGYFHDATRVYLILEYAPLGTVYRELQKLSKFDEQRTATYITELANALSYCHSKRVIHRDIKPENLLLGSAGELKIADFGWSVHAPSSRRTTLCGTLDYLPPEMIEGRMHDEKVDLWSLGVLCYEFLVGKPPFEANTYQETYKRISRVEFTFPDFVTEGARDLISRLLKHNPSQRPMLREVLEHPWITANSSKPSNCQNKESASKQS

Sample 1
SMILES: CCCOc1ccc([C@H]2[C@H](C(=O)O)[C@@H](c3ccc4c(c3)OCO4)CN2CC(=O)Nc2c(CC)cccc2CC)cc1
Observed: cell-free assay
Method: competition with immobilised ligand
Tested at: 1 µM
target | remaining binding [%]
MAP4K5 (Homo sapiens, UniProt Q9Y4K4) | 93
IRAK4 (Homo sapiens, UniProt Q9NWZ3) | 76
PIM1 (Homo sapiens, UniProt P11309) | 85
INSRR (Homo sapiens, UniProt P14616) | 94
PIP4K2B (Homo sapiens, UniProt P78356) | 97
TLK1 (Homo sapiens, UniProt Q9UKI8) | 74
EGFR (Homo sapiens, UniProt P00533, G719S) | 89
Mast/stem cell growth factor receptor Kit, autoinhibited (KIT, Homo sapiens, UniProt P10721) | 92
MAST1 (Homo sapiens, UniProt Q9Y2H9) | 93
KIT (Homo sapiens, UniProt P10721, L576P) | 90
Tyrosine-protein kinase ABL1, non-phosphorylated (ABL1, Homo sapiens, UniProt P00519, Q252H) | 61

Sample 2
SMILES: Nc1nccc(-c2c(-c3ccc(F)cc3)ncn2C2CCNCC2)n1
Observed: enzyme activity
Mode: inhibitor
Tested at: 0.5 µM
Relative to: control
target | remaining activity [%]
Cyclin-dependent kinase 2, with cyclin A (CDK2, Homo sapiens, UniProt P24941) | 100
DYRK4 (Homo sapiens, UniProt Q9NR20) | 99.3
MAP3K2 (Homo sapiens, UniProt Q9Y2U5) | 94
PRKD1 (Homo sapiens, UniProt Q15139) | 54.6
CAMK1D (Homo sapiens, UniProt Q8IU85) | 103
ROCK2 (Homo sapiens, UniProt O75116) | 102
MAP3K8 (Homo sapiens, UniProt P41279) | 102
Aurora kinase A (AURKA, Homo sapiens, UniProt O14965) | 100

Sample 3
Species: mouse
Sample: microsomes or S9
Tested at: 2 µM
Time: 0.5 h
Compound | remaining compound [%]
CCn1ccc2cc(C(=O)N3C[C@@H](CN4C[C@@H](C)O[C@@H](C)C4)[C@@H](CO)C3)ccc21 | 36.3
Cc1cc(C)cc(-n2nc(NC(=O)NC3(c4noc(C)n4)CCC3)cc2C)c1 | 33.2
O=c1[nH]c(N2CCN(Cc3ccccc3)CC2)nc(O)c1Cc1ccccc1 | 93.6
Cc1cc(C)c(S(=O)(=O)NCc2nc(N)n(S(=O)(=O)c3c(C)cc(C)cc3C)n2)c(C)c1 | 5.69
O=C(Nc1ccccc1C(F)(F)F)N1Cc2c(sc3c2CCCC3)-n2cccc2C1c1ccccc1 (centres unmarked) | 0.938
CC(C)(C)OC(=O)Nc1cccc(C(=O)NCc2c(F)cccc2F)n1 | 9.89
CCCNS(=O)(=O)c1ccc(CCC(=O)N2CCC(C(=O)OCC)CC2)cc1 | < 1
COC(=O)c1csc(COc2ccc(F)c(F)c2)n1 | 0.146

Mixed results
Target: WD repeat-containing protein 5 (WDR5, Homo sapiens, UniProt P61964)
Method: differential scanning fluorimetry
Tested at: concentration not given
Setting: unit not given
Relative to: WDR5 alone
SMILES | ΔTm
C[C@@H]1CN(c2ccc(-c3cc(C(=O)NCCOCCOCCOCCOCCOCCOCCOCCOCCOCCNC(=O)/C=C/c4[nH]cc(C(=O)N[C@@H](CC(N)=O)c5ccc(F)c(Cl)c5)c4-c4ccc(Cl)cc4F)ccc3F)cc2NC(=O)c2c[nH]c(=O)cc2C(F)(F)F)C[C@H](C)N1C | 8.86 and 8.9 and 9 and 9.08 and 8.94 and 8.59 and 8.89
C[C@@H]1CN(c2ccc(-c3cc(C(=O)NCCOCCOCCOCCOCCOCCOCCNC(=O)/C=C/c4[nH]cc(C(=O)N[C@@H](CC(N)=O)c5ccc(F)c(Cl)c5)c4-c4ccc(Cl)cc4F)ccc3F)cc2NC(=O)c2ccc(F)cc2C(F)(F)F)C[C@H](C)N1C | 6.08 and 5.44 and 6.16 and 5.31 and 5.72 and 6.26 and 6.22 and 6.06

A few entries again (sample 2):
target | remaining activity [%]
MAP3K8 (Homo sapiens, UniProt P41279) | 102
PRKD1 (Homo sapiens, UniProt Q15139) | 54.6
CAMK1D (Homo sapiens, UniProt Q8IU85) | 103
